# Experimental data collected from several papers.
# Compare with care: the assays were run in different laboratories. Several values in a cell are separate wells, animals, samples, runs or records. Numbers after ± are the reported error.
SMILES,cell line,test,system,setting,scale,measurement,result
C[C@H](NC(=O)C(=O)Nc1ccccc1C(C)(C)C)C(=O)N[C@@H](CC(=O)O)C(=O)COc1c(F)c(F)cc(F)c1F,"THP-1 CASP1 knockout, LPS-primed",inhibitor,,"25 µM, 2 h, together with: nigericin 6.25 µM",,LDH release,20.9% and 17.4% and 16.3%
OCCCc1n(Cc2ccc3ccccc3c2)c2ccccc2[n+]1Cc1ccc2ccccc2c1,NSCLC cell lines,NCI60 one-dose screen,,10 µM,,mean growth percentage,33.1%
Cc1cc(Nc2ncc(Cl)c(Nc3ccccc3S(=O)(=O)C(C)C)n2)c(OC(C)C)cc1C1CCNCC1,CLB-BAR,"phosphoproteomics LC-MS/MS, measured: SLC20A2 phosphorylation",,"200 nM, 60 min",reference: untreated,log2 fold change,-2.56
C=CCn1c(=O)c2cnc(Nc3ccc(N4CCN(C)CC4)cc3)nc2n1-c1ccc2c(n1)[C@@](O)(CC)CC2,MDA-MB-231,"flow cytometry, measured: pHH3-γH2Ax+",,concentration not given,,G2/M cells in subpopulation,8.5%
Cl.Cl.NCCNS(=O)(=O)c1ccc(Cl)c2ccncc12,SK-OV-3,ATP,2D monolayer culture,"0.01 µM, 4 days",reference: untreated,relative cell number,119%
CNC(=O)c1ccc(N2C(=S)N(c3ccc(C#N)c(C(F)(F)F)c3)C(=O)C2(C)C)cc1F,VCaP,"cell proliferation, CCK-8",,16000 nM,,inhibition,41.4%
COC(=O)c1ccc2c(c1)n(Cc1ccc3ccccc3c1)c[n+]2Cc1ccc2ccccc2c1,NSCLC cell lines,NCI60 one-dose screen,,10 µM,,mean growth percentage,45.2%
Cc1ccc(CNC(=O)Cn2cc(CSc3nc4ccccc4[nH]3)nn2)cc1,Caco-2,MTT,,15.6 ppm,,cytotoxicity,60%
C=CC(=O)N1CCC[C@@H](c2ccc(C(N)=O)c3[nH]ccc23)C1,TMD8 wild-type,"calcium flux, FLIPR",,"1 h preincubation, together with: anti-IgM",,maximum inhibition,41.6%
CC/C(=N\NC(=O)NCc1cccc(O)c1)c1ccc(O)c(C)c1O,SK-OV-3,Western blot,3D culture in gellan gum,"5 µM, 1 h, unit not given",reference: β-actin,TAZ protein level,1.12 ± 0.5
Cc1cc(NC(=O)c2cccc(NC(=O)/C=C/CN(C)C)c2)ccc1Nc1nccc(-c2cccnc2)n1,AP1 reporter HEK293,"AP1 reporter gene, inhibitor",,"10 µM, 6 h, compound washed out, unit not given, together with: PMA",reference: PMA alone,reporter activity,0.224
O=C(/C=C/C=C/C=C/C1CCCCC1)NC1=C[C@@](O)(/C=C/C=C/C=C/C(=O)NC2=C(O)CCC2=O)[C@@H]2O[C@@H]2C1=O,NCI-H1355,"cell growth, CellTiter-Glo",,78 h,,GI50,28.7 µM
c1ccc2cc(Cn3cc[n+](Cc4ccc5ccccc5c4)c3)ccc2c1,NSCLC cell lines,NCI60 five-dose,,range over NSCLC panel,,CC50,15.2 to 71.9 µM
Cn1cc(-c2ccc(-c3cncc(Cl)c3N3CCC4(CCNC4=O)CC3)cc2)cn1,COLO 205,"microarray, measured: c-Myb",,"concentration not given, 2 h",reference: untreated cells,fold change in expression,-2
C=CC(=O)N1CCC(Oc2cc3c(Nc4ccc(Cl)c(Cl)c4F)ncnc3cc2OC)CC1,NCI-H2073 EGFR ASV knock-in,"cell proliferation, CellTiter-Glo",,,reference: knock-in over parental NCI-H2073,selectivity ratio,0.013
C[C@]12CC[C@@H]3c4ccc(O)cc4C[C@@H](CCCCCCCCC[S+]([O-])CCCC(F)(F)C(F)(F)F)[C@H]3[C@@H]1CC[C@@H]2O (some centres unmarked),"MCF7 3xERE-luc, steroid-deprived","ERE luciferase reporter, agonist",,,reference: vehicle,Emax,-5.89%
COc1ccc(-n2nc(C(C)=O)s/c2=N\N=C(/C)c2ccc(NC(=O)c3ccccc3)cc2)cc1,MCF7,,,1.25 µM,,viability,2.72%
Cn1cc(Nc2nccc(-c3ccc4c(c3)CN(C3COC3)CC[C@H]4NC(=O)c3cn(C(C)(C)C)nn3)n2)cn1,mouse splenic B cells,measured: p53 signalling,,"30 mg/kg, IgD-activated in vivo","reference: vehicle, direction not given",pathway activation z-score,-0.535
c1cnc2c(c1)ccc1cccnc12,HEK293T,,,25 µg/mL,reference: albendazole,IL-1β mRNA level,decreased
Cn1cc(-n2cnc3c(NCc4nc5cc(Cl)c(Cl)cc5[nH]4)nc(N4CCOCC4)nc32)cn1,MDA-MB-231,"qRT-PCR, measured: BRCA1",,"50 nM, 6 h, unit not given",reference: untreated,mRNA level,0.322
CC(C)NCC(O)c1ccc(O)c(O)c1 (centres unmarked),mouse ventricular cardiomyocytes,,,"dose not given, 0.067 s",,sarcomere length,1.8 µm
CCn1cc(-c2cc(Cn3ccnc3)cc3c2CCN([C@H](c2cc(OC)ccn2)C2CC2)C3=O)c(C(F)(F)F)n1,JHH6,cell growth,,120 h,,EC50,> 30 µM
C=CC(=O)Nc1cccc(Oc2nc(Nc3ccc(N4CCN(C)CC4)cc3)nc3ccoc23)c1,TMD8 wild-type,"calcium flux, FLIPR",,"2 h preincubation, together with: anti-IgM",,maximum inhibition,46.7%
Cc1c(C(=O)NN2CCCCC2)nn(-c2ccc(Cl)cc2Cl)c1-c1ccc(Cl)cc1,"CHO wild-type cells lacking MOR, membranes",basal G-protein activity,,10 µM,,inhibition,~20%
C=Cc1c2[n-]c(c1C)/C=c1\[n-]/c(c(C)c1C=C)=C\c1[n-]c(c(CCC(=O)O)c1C)/C=c1\[n-]c(c(C)c1CCC(=O)O)=C2.[Sn+4],SH-SY5Y,"RNA-seq, measured: UBASH3B mRNA",,"5 µM, 5 h",reference: untreated cells,fold change,2.96
O=c1c2ccccc2[se]n1-c1ccccc1,differentiated LUHMES MT1G-HiBiT neurons,measured: MT1G,,24 h,,AC50,1.2 µM
N#Cc1ccc(Oc2ccc3c(c2)COB3O)cc1,PBMC,MSD,,"0.001 µM, unit not given, together with: PGE2",reference: DMSO,cAMP level difference,-1.75
CC1(C)CCC(CN2CCN(c3ccc(C(=O)NS(=O)(=O)c4ccc(NCC5CCOCC5)c([N+](=O)[O-])c4)c(Oc4cnc5[nH]ccc5c4)c3)CC2)=C(c2ccc(Cl)cc2)C1,THP-1,"annexin V/PI flow cytometry, measured: annexin V+/PI+",,"0.4 µM, 24 h",,late apoptotic cells,2.5%
O=C(Nc1c(Cl)cncc1Cl)c1ccc(OC(F)F)c(OCC2CC2)c1,PBMC,MSD,,"0.001 µM, unit not given, together with: PGE2",reference: DMSO,cAMP level difference,-1.66
CCCCc1nc(Cl)c(CO)n1Cc1ccc(-c2ccccc2-c2nn[nH]n2)cc1,human PBMC,"RNA-seq, measured: NRG1 mRNA",,"10 µg/mL, 24 h",reference: untreated control,log2 fold change,-3.02
"CC(=O)c1c(O)c(C)c(O)c2c1OC1=CC(=O)C(C(C)=O)C(=O)C12C (single isomer, unassigned; (+))","hepatocytes, iPSC-derived, line L1",cell viability,,24 h,,IC50,15 µM
COc1cc(C(=O)O[C@@H]2CCCOc3cc(cc(OC)c3OC)C(=O)NCCCN3CCCN(CC2)CC3)cc(OC)c1OC,CMV-specific PBMC,,,"concentration not given, together with: ATP, NLVPMVATV-pulsed T2 cells",reference: control without ATP,specific killing,55.4% and 91.8% and 66.8%
COc1cc(OC)c2c(=O)[nH]c(-c3cc(C)c(OCCO)c(C)c3)nc2c1,murine AML cells,"BRD4 chromatin occupancy, ChIP-seq, measured: Irf2bp2 locus",,concentration not given,reference: DMSO,log2 fold change,0.06
c1ccc2[nH]ccc2c1,HCT-8,"RNA-seq, measured: DDIT3",,concentration not given,,"mRNA level, LS mean",13.2 counts per million
COc1cc(/C=C/C(=O)N2CCC=CC2=O)cc(OC)c1OC,MDA-MB-468,"qRT-PCR, measured: PRDX6",,"30 µM, 6 h",reference: time zero,mRNA level,98.3 ± 4.9%
Cc1ccc2c(c1)C(=O)[C@]1(O)CCN(c3ccc4nc(C)ccc4c3)C1=N2.Cl,murine cells,"polysome RT-qPCR, measured: PDGFRα",,5 µM,,polysomal mRNA increase,~50%
Cc1cccc(-c2[nH]c(CNc3ccccc3F)nc2-c2ccc3ncnn3c2)n1,MM1.S,XTT,,2 µM,,viability,13% and 16% and 22%
CC(=O)Nc1cc(Oc2ccc3c(c2)CCN3C(=O)Nc2ccc(CN3CCN(C)CC3)c(C(F)(F)F)c2)ncn1,MUTZ5 B-ALL cells,CellTiter-Glo,,"concentration not given, 3 d",,cell proliferation,inhibited
COc1cccc(C2CC(c3ccccc3OC)n3nc(N)nc3N2)c1 (centres unmarked),MEF with TRE-FLAG-LMNB1,"LMNB1 level, high-content screening",,250 µM,,maximum inhibition,3%
Cc1nn(-c2nc3ccc(Cl)c(Cl)c3[nH]2)c(O)c1C1OC(=O)c2ccccc21 (centres unmarked),RAW-ISG,western blot,,"10 µM, together with: HT-DNA",reference: vehicle,phospho-TBK1/TBK1 ratio,0.756 and 1.14 and 0.79
O=c1[nH]nc(OCCCc2ccc(Cl)cc2)c(NCc2cccnc2)c1Br,HEK-293T,"RNA-seq GSEA, measured: HALLMARK_COAGULATION",,concentration not given,direction not given,normalized enrichment score,0.926
Nc1cccc2c1C(=O)N(C1CCC(=O)NC1=O)C2=O (centres unmarked),bone marrow CD138+ myeloma cells,XTT,,"1.6 µM, phenol red-free RPMI",,viability,25%
COc1cnc2cccc(N3CCc4c(cc(Cn5ccnc5C)cc4-c4cn(C)nc4C(F)(F)F)C3=O)c2c1,HEC-50B,"cell growth, inhibitor",,120 h,,EC50,> 30 µM
C[C@H]1CN(C2COC2)CCN1c1ccc(Nc2cc(-c3ccnc(N4CCn5c(cc6c5CC(C)(C)C6)C4=O)c3CO)cn(C)c2=O)nc1,TMD8 wild-type,"calcium flux, FLIPR",,"2 h preincubation, together with: anti-IgM",,maximum inhibition,91.8%
CCn1cc(-c2cc(Cn3ccoc3=N)cc3c2CCN([C@@H](C)c2cc(OC)ccn2)C3=O)c(C(F)(F)F)n1,JHH6,cell growth,,120 h,,EC50,7.27 µM
CCc1n(Cc2ccc3ccccc3n2)cc[n+]1Cc1ccc2ccccc2c1,NSCLC cell lines,NCI60 one-dose,,"10 µM, average over cell lines",,growth,7.64 to 16%
CCOC(=O)/C=C/C(=O)N(CC(C)C)NC(=O)[C@H](CC(C)C)NC(=O)[C@H](CC(C)C)NC(=O)OCc1ccccc1,L-363,MTS,,"10 µM, 72 h",,viability decrease,32%

# For quick reference, copied from above:
SMILES,cell line,test,system,setting,scale,measurement,result
COc1cnc2cccc(N3CCc4c(cc(Cn5ccnc5C)cc4-c4cn(C)nc4C(F)(F)F)C3=O)c2c1,HEC-50B,"cell growth, inhibitor",,120 h,,EC50,> 30 µM
C[C@H]1CN(C2COC2)CCN1c1ccc(Nc2cc(-c3ccnc(N4CCn5c(cc6c5CC(C)(C)C6)C4=O)c3CO)cn(C)c2=O)nc1,TMD8 wild-type,"calcium flux, FLIPR",,"2 h preincubation, together with: anti-IgM",,maximum inhibition,91.8%
CCn1cc(-c2cc(Cn3ccoc3=N)cc3c2CCN([C@@H](C)c2cc(OC)ccn2)C3=O)c(C(F)(F)F)n1,JHH6,cell growth,,120 h,,EC50,7.27 µM
CCc1n(Cc2ccc3ccccc3n2)cc[n+]1Cc1ccc2ccccc2c1,NSCLC cell lines,NCI60 one-dose,,"10 µM, average over cell lines",,growth,7.64 to 16%
CCOC(=O)/C=C/C(=O)N(CC(C)C)NC(=O)[C@H](CC(C)C)NC(=O)[C@H](CC(C)C)NC(=O)OCc1ccccc1,L-363,MTS,,"10 µM, 72 h",,viability decrease,32%
